Results collected from several papers.
“And” joins repeats or separate records; there may be more than shown.
Cereblon/Ikaros: Cereblon/Ikaros (Homo sapiens, UniProt Q13422+Q96SW2)
MAPK8: Mitogen-activated protein kinase 8 (MAPK8, Homo sapiens, UniProt P45983)
Sequence of UniProt P45983 (whole entry, looked up): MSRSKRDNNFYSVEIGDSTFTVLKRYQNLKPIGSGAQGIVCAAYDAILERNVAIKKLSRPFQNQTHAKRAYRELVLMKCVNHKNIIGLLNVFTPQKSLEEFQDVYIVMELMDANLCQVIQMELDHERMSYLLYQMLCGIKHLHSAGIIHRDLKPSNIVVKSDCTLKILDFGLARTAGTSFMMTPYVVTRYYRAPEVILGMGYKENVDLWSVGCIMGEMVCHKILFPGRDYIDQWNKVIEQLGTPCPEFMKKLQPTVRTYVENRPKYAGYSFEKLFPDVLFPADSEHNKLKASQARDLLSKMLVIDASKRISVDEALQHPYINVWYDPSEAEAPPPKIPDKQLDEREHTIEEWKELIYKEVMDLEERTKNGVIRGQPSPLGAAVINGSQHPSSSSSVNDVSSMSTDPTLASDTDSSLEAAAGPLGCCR
MAOA: Amine oxidase [flavin-containing] A (MAOA, Homo sapiens, UniProt P21397)
Sequence of UniProt P21397 (whole entry, looked up): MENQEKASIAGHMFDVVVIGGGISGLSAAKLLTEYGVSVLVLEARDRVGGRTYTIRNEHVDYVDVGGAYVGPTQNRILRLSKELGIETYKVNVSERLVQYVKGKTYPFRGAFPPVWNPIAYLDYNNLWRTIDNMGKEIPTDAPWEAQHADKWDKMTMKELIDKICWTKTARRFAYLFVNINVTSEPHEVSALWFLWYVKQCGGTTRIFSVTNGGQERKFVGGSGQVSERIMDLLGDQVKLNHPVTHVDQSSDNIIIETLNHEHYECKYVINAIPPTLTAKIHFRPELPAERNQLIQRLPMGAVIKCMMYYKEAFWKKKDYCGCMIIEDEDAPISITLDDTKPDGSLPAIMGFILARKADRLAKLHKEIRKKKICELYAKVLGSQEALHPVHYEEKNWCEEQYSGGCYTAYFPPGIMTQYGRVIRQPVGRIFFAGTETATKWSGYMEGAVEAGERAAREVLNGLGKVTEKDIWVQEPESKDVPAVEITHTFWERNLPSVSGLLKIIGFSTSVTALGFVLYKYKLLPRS
IL1RL2: Interleukin-1 receptor-like 2 (IL1RL2, Homo sapiens, UniProt Q9HB29)
Sequence of UniProt Q9HB29 (whole entry, looked up): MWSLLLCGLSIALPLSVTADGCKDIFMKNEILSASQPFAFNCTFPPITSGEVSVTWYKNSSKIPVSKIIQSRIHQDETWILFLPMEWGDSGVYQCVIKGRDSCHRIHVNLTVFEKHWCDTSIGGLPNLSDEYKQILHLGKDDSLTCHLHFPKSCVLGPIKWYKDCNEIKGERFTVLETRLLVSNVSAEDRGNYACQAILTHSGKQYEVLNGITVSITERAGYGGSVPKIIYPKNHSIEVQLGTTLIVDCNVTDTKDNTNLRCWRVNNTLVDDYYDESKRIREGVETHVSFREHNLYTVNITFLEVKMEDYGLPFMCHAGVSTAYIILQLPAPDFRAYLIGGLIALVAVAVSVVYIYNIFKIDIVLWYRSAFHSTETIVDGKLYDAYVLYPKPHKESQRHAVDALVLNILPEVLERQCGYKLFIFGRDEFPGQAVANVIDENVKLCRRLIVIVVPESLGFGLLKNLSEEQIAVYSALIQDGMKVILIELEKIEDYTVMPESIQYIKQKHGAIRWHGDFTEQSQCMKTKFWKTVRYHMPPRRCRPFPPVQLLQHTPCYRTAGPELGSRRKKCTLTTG
Sequence of UniProt O75417 (whole entry, looked up): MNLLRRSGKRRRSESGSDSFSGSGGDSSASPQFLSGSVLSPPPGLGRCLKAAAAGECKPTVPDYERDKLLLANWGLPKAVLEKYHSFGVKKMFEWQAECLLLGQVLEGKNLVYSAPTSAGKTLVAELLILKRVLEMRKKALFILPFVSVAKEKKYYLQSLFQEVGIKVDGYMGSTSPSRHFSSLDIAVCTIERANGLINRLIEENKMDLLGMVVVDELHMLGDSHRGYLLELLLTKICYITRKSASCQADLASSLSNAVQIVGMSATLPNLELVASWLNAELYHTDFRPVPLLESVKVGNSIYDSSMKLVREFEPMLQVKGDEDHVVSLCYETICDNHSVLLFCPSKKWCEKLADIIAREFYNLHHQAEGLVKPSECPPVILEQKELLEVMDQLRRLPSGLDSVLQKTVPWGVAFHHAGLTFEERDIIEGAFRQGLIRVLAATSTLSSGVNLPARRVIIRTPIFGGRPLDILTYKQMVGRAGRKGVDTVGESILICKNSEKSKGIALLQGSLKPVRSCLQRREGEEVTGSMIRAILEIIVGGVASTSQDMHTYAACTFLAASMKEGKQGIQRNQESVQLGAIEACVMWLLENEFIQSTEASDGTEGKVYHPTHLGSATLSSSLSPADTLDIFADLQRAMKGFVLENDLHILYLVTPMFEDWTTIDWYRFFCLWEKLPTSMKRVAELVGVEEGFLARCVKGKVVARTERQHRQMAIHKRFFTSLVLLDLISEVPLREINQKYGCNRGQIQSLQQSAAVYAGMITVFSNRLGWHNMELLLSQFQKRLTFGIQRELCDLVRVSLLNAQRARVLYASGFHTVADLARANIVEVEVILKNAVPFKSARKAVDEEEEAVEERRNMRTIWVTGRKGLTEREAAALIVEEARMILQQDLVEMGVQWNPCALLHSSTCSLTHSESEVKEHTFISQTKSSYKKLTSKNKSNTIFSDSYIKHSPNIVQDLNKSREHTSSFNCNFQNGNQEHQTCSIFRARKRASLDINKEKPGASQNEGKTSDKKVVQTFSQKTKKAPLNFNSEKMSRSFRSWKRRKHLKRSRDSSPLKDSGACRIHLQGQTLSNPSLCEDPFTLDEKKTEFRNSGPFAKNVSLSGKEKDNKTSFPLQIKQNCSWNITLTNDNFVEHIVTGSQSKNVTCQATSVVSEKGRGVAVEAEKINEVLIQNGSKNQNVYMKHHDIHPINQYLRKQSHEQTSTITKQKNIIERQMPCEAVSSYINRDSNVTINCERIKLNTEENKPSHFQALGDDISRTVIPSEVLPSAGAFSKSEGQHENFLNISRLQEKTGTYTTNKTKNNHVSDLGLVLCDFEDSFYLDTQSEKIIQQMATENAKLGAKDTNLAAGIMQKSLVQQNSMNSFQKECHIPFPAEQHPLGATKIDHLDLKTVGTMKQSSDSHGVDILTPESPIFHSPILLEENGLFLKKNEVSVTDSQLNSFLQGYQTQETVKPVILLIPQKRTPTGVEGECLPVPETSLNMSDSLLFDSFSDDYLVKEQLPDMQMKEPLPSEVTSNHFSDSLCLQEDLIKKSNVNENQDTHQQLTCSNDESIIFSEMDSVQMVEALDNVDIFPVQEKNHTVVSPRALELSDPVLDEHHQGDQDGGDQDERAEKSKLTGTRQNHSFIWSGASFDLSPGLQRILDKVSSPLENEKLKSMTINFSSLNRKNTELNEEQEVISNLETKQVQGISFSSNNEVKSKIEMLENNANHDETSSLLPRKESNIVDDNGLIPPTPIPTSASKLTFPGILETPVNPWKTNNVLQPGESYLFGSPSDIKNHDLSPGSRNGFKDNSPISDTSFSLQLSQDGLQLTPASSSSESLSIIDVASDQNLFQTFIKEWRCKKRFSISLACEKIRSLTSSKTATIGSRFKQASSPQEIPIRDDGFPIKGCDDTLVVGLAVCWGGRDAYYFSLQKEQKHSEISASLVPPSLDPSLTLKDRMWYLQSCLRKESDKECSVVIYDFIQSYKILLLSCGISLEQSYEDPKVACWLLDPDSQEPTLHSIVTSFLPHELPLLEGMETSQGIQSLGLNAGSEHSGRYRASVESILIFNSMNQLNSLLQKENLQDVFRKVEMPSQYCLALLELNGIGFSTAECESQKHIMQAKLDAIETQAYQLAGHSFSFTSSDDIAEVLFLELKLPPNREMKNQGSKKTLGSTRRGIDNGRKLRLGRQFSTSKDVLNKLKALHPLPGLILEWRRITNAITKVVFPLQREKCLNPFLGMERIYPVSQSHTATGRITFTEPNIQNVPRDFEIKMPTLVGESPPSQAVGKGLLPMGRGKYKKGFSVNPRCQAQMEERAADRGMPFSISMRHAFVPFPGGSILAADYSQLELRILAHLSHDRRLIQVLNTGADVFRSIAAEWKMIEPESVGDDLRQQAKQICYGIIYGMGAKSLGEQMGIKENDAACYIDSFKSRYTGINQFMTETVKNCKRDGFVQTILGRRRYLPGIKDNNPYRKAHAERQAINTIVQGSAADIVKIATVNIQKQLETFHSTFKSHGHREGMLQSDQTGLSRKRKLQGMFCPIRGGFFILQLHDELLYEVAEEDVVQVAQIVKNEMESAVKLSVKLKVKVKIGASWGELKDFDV
Sequence of UniProt Q05513 (whole entry, looked up): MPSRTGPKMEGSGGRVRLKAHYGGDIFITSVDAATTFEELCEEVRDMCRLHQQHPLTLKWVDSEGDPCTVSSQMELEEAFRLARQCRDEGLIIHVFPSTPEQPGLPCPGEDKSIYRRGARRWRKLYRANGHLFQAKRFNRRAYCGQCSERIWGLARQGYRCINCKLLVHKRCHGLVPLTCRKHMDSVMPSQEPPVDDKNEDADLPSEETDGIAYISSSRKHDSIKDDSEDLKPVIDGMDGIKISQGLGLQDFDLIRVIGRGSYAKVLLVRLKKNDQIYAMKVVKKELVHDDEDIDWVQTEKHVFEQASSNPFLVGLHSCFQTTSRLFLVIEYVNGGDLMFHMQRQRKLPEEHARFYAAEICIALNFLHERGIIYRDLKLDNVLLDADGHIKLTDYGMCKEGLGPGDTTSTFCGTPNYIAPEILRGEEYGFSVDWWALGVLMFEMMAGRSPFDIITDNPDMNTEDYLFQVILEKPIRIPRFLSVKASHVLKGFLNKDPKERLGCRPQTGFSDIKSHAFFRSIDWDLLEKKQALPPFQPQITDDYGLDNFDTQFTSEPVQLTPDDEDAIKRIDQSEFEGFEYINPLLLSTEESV
Sequence of UniProt P11802 (whole entry, looked up): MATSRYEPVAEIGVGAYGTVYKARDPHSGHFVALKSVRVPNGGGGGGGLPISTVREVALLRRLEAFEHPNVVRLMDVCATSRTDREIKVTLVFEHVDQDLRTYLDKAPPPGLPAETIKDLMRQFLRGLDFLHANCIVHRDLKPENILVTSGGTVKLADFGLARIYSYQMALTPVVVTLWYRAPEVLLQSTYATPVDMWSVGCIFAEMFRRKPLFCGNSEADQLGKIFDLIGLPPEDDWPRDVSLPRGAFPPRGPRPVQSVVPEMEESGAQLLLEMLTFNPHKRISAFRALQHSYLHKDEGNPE

| SMILES | target | assay | system | conditions | how to read | remaining activity |
| --- | --- | --- | --- | --- | --- | --- |
| CN(Cc1cc(C2CC2)on1)C(=O)c1cccc(-c2ccc3c(c2)CCO3)c1 | Acetyl-CoA synthetase (Cryptococcus neoformans, UniProt J9VFT1) | enzyme activity, inhibitor, coupled pyrophosphate | – | 12.5 µM | – | 92% and 98.9% |
| COC(=O)c1ccc2c(c1)nc(NC(=O)c1ccccc1)n2CCCc1ccccc1 | HDAC4 (Homo sapiens, UniProt P56524) | enzyme activity, inhibitor | – | 10 µM | – | 83% |
| O=C1CCC(N2Cc3c(OCc4cn(C5CCNCC5)nn4)cccc3C2=O)C(=O)N1 (stereo not drawn) | Cereblon/Ikaros | protein level, degrader, western blot | NCI-H929 | 1 nM, 4 h | – | 91.2% |
| COC(=O)[C@]1(C(C)C)C=C(C(=O)Nc2cccc(C(=O)Nc3ccc(Nc4nccc(-c5cccnc5)n4)c(C)c3)c2)C(=O)CC1 | MAPK8 | kinase activity, inhibitor | – | 44.44 µM, unit not given, together with: 10 mM glutathione | relative to: no inhibitor | 0.124 |
| CC(C)c1ccc(/C=C/C(=O)c2ccc(Cl)cc2)cc1 | MAOA | enzyme activity, inhibitor | – | 10 µM | – | 59.3% |
| CC(C)[C@@H]1NC(=O)[C@H](Cc2ccccc2)NC(=O)CSC[C@@H](C(N)=O)NC(=O)[C@H](CCC(=O)O)NC(=O)[C@H](CO)NC(=O)[C@H](Cc2c[nH]c3cccc(Cl)c23)NC(=O)[C@H](C2CCCCC2)NC(=O)[C@H](C(C)C)NC(=O)[C@H](Cc2ccc(O)cc2)NC(=O)[C@H](CC(=O)O)NC(=O)[C@H](Cc2c[nH]c3ccccc23)NC(=O)[C@H](Cc2ccc(N)nc2)NC(=O)[C@H](Cc2c[nH]c3ccc(Cl)cc23)NC(=O)[C@H](CCC(=O)O)NC1=O | IL1RL2 | reporter gene (SEAP), inhibitor, HEK-Blue IL-36R reporter | HEK-Blue IL-36R cells | 0.015 µM, 6 h, together with: IL-36γ 30 ng/mL | – | 107% |
| Cc1cnc2nc1Nc1cccc(c1)COC/C=C/COCc1cc(ccc1OCCN1CCOCC1)N2 | EGFR (Homo sapiens, UniProt P00533, G719S) | – | – | concentration not given | relative to: untreated control | 95% |
| CC(C)(O)C(=O)N1CCC(n2cc(Cc3ccc4c5c(cccc35)C(=O)N4C3CCC(=O)NC3=O)cn2)CC1 (stereo not drawn) | Cereblon/Ikaros | protein level, degrader, western blot | NCI-H929 | 100 pM, 4 h | – | 101% |
| CN1C[C@@H](c2c[nH]c3cc(Br)ccc23)NC[C@@H]1c1c[nH]c2cc(Br)ccc12 | Cyclin-dependent kinase 4, with cyclin D3 (CDK4, Homo sapiens, UniProt P11802) | enzyme activity, inhibitor | – | 10 µM | – | 98% |
| COc1ccccc1-c1ccncc1C(=O)Nc1nnc(OCc2ccc(Cl)cc2)s1 | DNA polymerase theta, helicase domain (POLQ, Homo sapiens, UniProt O75417) | ATPase activity, ADP-Glo | – | 0.03 µM | relative to: 0 µM cpd | 43% |
| O=C1CCC(N2C(=O)c3cccc4c(Cc5cnn(C6CCN(C(=O)CO)CC6)c5)ccc2c34)C(=O)N1 (stereo not drawn) | Cereblon/Ikaros | protein level, degrader, western blot | NCI-H929 | 1 nM, 4 h | – | 44.7% |
| C[C@](C(=O)NC1CCOCC1)(c1cncnc1)N(C(=O)[C@H](F)Cl)c1ccc(OC(F)(F)Cl)cc1 | Stromelysin-2 (Homo sapiens, UniProt P09238) | enzyme activity, inhibitor | – | 10 µM | – | 102% |
| O=C1CCC(N2C(=O)c3cccc4c(Cc5cnn(C6CCN(C(=O)C7(O)CC7)CC6)c5)ccc2c34)C(=O)N1 (stereo not drawn) | Cereblon/Ikaros | protein level, degrader, western blot | NCI-H929 | 1 nM, 4 h | – | 29.4% |
| CC(C)c1ccc(/C=C/C(=O)c2ccc(Br)s2)cc1 | MAOA | enzyme activity, inhibitor | – | about 2 × IC50, 30 min preincubation, after dialysis | – | 71.3% |
| N#Cc1cnc2sc(C(=O)O)cc2c1N1CCc2[nH]nc(C(=O)N[C@@H](CC(=O)NCCOCCN3CCOCC3)c3cccc(Br)c3)c2C1 | IL1RL2 | reporter gene (SEAP), inhibitor, HEK-Blue IL-36R reporter | HEK-Blue IL-36R cells | 3.7 µM, 6 h, together with: IL36G 0.01 ng/mL | – | 45.4% |
| O=C1CCC(N2C(=O)c3cccc4c(Cc5cnn(C6CCNCC6)c5)ccc2c34)C(=O)N1 (stereo not drawn) | Cereblon/Ikaros | protein level, degrader, western blot | NCI-H929 | 1 nM, 4 h | – | 73.3% |
| COC(=O)[C@@]1(C)C=C(C(=O)Nc2cccc(C(=O)Nc3ccc(Nc4nccc(-c5cccnc5)n4)c(C)c3)c2)C(=O)CC1 | MAPK8 | enzyme activity, inhibitor | – | 0.0007527 µM, 0 h, unit not given, together with: GSH 10 mM pre-incubation | relative to: vehicle | 1.03 |
| O=C1CCC(N2C(=O)c3cccc4c(Cc5cnn(C6CCN(C(=O)CS)CC6)c5)ccc2c34)C(=O)N1 (stereo not drawn) | Cereblon/Ikaros | protein level, degrader, western blot | NCI-H929 | 100 pM, 4 h | – | 101% |
| COc1ccc(NC(=O)Nc2ccc3c(c2)C(=O)N(C(C)CO)CC(C)C(CN(C)Cc2ccc4c(c2)OCO4)O3)cc1 (stereo not drawn) | Mapk1 (Mus musculus, UniProt P63085) | kinase activity, KinaseProfiler | – | 0.03 µM, species mouse | relative to: control | 78% |
| O=C1Nc2ccc(I)cc2C1=Cc1cc(Br)c(O)c(Br)c1 | DCLRE1A (Homo sapiens, UniProt Q6PJP8) | exonuclease activity, inhibitor, fluorescence HTS | – | 10 µM, 80 min, together with: 8 nM 5P-FQ substrate | – | 51.4% |
| O=C1CCC(N2Cc3c(OCc4ccc(CN5CCNCC5)cc4)cccc3C2=O)C(=O)N1 (stereo not drawn) | Cereblon/Ikaros | protein level, degrader, western blot | NCI-H929 | 1 nM, 4 h | – | 98.6% |
| Cc1cccc(-c2ccc3nc(NC(=O)C4CCCCC4)nn3c2)c1 | PRKCZ (Homo sapiens, UniProt Q05513) | enzyme activity, Dundee kinase panel | – | 10 µM | – | 85% |
| CC(C)c1ccc(/C=C/C(=O)c2cccc(C(F)(F)F)c2)cc1 | MAOA | enzyme activity, inhibitor | – | 10 µM | – | 90% |
| O=C1CCC(N2C(=O)c3cccc4c(Cc5ccc(CN6CCNCC6)cc5)ccc2c34)C(=O)N1 (stereo not drawn) | Cereblon/Ikaros | protein level, degrader, western blot | NCI-H929 | 10 nM, 4 h | – | 31.8% |
